Assay results of several laboratories.
Every numbered part comes from another study and shows a few of its results, in no order.

Set 1 — technique: RNA Bind-n-Seq; molecule type: RNA; medium: in vitro; concentration: 100 nM; reference: input RNA pool; reading: higher = stronger binding; endpoint: bound/input enrichment
Target: RING finger protein unkempt homolog, zinc fingers 1-6, SBP tag (UNK, Homo sapiens, UniProt Q9C0B0, residues 30-357)
Chain of UniProt Q9C0B0 (30-357, looked up): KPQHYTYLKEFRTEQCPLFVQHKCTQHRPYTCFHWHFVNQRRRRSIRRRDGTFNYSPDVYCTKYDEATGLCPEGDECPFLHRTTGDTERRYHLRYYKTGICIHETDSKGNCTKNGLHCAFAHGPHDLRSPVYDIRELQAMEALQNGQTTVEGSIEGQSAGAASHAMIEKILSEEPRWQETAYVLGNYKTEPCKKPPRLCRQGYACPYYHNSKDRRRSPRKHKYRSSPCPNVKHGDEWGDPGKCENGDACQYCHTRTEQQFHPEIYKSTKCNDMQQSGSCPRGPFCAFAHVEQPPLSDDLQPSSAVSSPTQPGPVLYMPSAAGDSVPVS
Notes: RNA with constant flanks, vertebrate orthologous sites, ends assumed
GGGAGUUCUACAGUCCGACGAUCCCCACCCAGCUCACACCAGCAGCUUGCUCUCACACGUGCACAGCCUGCAAAGGAACAGUCUCGAGGGAUUUUUAUUUUAAUUUAAAACCUGCUUUUCCCAAAACUGAUCAAGAAGCUACGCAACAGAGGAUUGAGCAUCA: 0.496 ratio
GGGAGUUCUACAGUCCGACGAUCAAGGUGGGAGAGGUACCUUAAACUGGAAUAAUAAGAAAGGGAAACAGAAUGACGCUGGUACAGAAAAAUCAGAAGGAAAGCUUUGCAAAACCGUCCAACAGAACUGCAGUACAAGAUGCACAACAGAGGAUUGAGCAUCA: 0.415 ratio
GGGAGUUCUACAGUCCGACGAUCCCAGUUUUCCAUAUAGGAUUGGCCUCAAAUCUAUAGGAUUUUUGACAAAUGUACCAUAUCUAGUUGUGUUGUUUCACUAUUUUUUUUAUUAGCCUGUAAAUAAAGAUGGCAUCUCUCCUACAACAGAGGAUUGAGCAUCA: 1.52 ratio
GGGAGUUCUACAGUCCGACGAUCGAGCUAAAGGAGUUAGCAUCUUUAUUUUUGUAUCAAAGAUAAAGGUUAUUUUGAAAUUAUUAGGGUUUUUACACAGCUCUGGAAUCUGUUGCUUUUGUAAGCCAAUUGUUUGAUCUUAGGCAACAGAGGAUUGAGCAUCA: 1.62 ratio
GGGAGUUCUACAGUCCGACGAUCUUGUUUUGUUUUGUUUUUAAUUUAAUUAUUCCUUUUGGGGGUAAAGUUUGCUCUACCAAAUAGUGAUUGUAACAAAUUGAUCUGUUUUGGAUGUUGCUAUAGUGACAUGCAGUUAUAUAUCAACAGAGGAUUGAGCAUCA: 0.529 ratio
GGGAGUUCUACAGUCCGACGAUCAUUUGGAAUGUUAAUAAAUUGCUCUGAGAUUCCUCAAGUCCAUUUUGUAAGAUCAGACCAUAGGUGGGUGUUGUUUCUUUUAAGUUUGUGUACUGUGUCCAAUGUUACAUUUUUAAAAGUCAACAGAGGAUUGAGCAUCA: 0.613 ratio
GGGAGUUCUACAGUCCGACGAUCGCACAUGCCACUGUCACCAAAAAUGAACUACCACUUUCCAAAUUCCAUUCAGAGCCAUUUUAGUGUUUUCCUAUUCCCUACCCCUCCCACUACUUUCAAUGAUGAAAUACCCUAAGUUCUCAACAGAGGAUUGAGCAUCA: 2.69 ratio
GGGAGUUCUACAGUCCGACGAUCUGGGCAUCCUCUCUGGGGAGCUGCUGGCCGCUUAGCGUUGUUUGAUUUUUGACCUUGACAUAGUAGAUAGGCUUGUGGUUUUUUUAAUUUAAAGAUAUUAAGACUUAAUUCACUAAAAUUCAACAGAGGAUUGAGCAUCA: 0.82 ratio
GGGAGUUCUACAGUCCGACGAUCGGGACGCUUUGAUGUAAAGAUUGAAGUUAAGAGCUGAUCACAAGCACAAAUCUUUCCCACUAGCCAUUUAAUAAGUUAAAAAGAUACAAAAACCUACUAGUCUUGAACAAACUGUCAUACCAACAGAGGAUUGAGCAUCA: 2.36 ratio
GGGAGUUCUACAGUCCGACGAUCAUGAUAGAUAAGAAUGUAUAUCAGAUGCUGGAUGUAGAAUGAAACCAUCACUUAGCAUAGGGUUUGUCUGUCAUAACUGAUCUAUAGCUAGGUUUCCUUAAACCAGAGAUGCACUGCCCUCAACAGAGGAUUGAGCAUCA: 0.226 ratio
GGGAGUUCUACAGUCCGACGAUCCACAUCUGGUGAUAUUUGGCCUGGCCUUUCAGCAUAUGAUAAUAGUCCCAGAUCACCUCAUAGUCCUUCACCAAUUGCUACACCACCUAGUCAGAGUUCAUCUUGCUCUGAUGCCCCCAUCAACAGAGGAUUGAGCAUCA: 1.06 ratio

Set 2 — technique: RNA Bind-n-Seq; molecule type: RNA; medium: in vitro; concentration: 365 nM; reference: no-protein control; reading: higher = stronger binding; endpoint: RBNS enrichment (R)
Target: RNA binding protein fox-1 homolog 2, RRM domain, GST-SBP tag (RBFOX2, Homo sapiens, UniProt O43251-10, residues 100-194)
Notes: natural RNA segment, single round, ends assumed
Target sequence (chain): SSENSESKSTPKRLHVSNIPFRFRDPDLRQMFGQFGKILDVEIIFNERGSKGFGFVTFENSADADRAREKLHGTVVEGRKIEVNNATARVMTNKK
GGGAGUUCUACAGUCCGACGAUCCUCAGGUAGUGAUGAAUUAGUUGCUGUCACAAAAGGAGGGAAGUAGCACCCAAAUUAAGUUGCUUAAGAGAGGAAAUGUACAUCUUGUAUAACUUAGGGAGCGAAGAAAAUGGAAUUCUCGGGUGCCAA: 0.494
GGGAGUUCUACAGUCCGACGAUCGGCACAGGGUCCAUCCCGCCAUGGCAACAGCAGCAGGCGGCUGCCGCAGCUUCUCCAGGAACCCCUCAGAUGCAAGGCAACCCCACUAUGGUGCCCCUGCCCCCCGGGGUUGGAAUUCUCGGGUGCCAA: 0.215
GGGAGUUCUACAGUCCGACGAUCCCCAUGUGUUGAAGUGCACGCCUCAUCUUUAGCAGCUGCCCCAAAGAGGCCAGAUCCUGGCAUUUUGCACACAUUUUGGUGUAUAUACAGUGUAUCACUCAGUAAGAAUGUGGAAUUCUCGGGUGCCAA: 5.64
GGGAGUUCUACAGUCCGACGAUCGCCUCCUCCAUCUUUCAUGUGGUACCCAGGUAAAUGUGGACAUAGUGUGAAGGGACCUGUGGCCACCAGAGGAUGCUCUGGGCCUACUGAGGACAGGCCACUUGUGCUCAUGGAAUUCUCGGGUGCCAA: 0.616
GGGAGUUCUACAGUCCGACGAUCGGCCUGUGUGAGGCAGAACUGGGACCCUUGAUUCCCAGAUUGGGAGUCAGCCAAGGACACUGGGGCUGAAUGAAAUGCCCAUUCUUCAGGCAUUUCUACCAUAAUAUUGGUGGAAUUCUCGGGUGCCAA: 0.415
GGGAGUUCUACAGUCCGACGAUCCAUAGAACUUAUAAAGGUCCCAGGAUCACUUUUAAGGGAUUUUUAUUAGUUUAAAGGUAAAUAAAGUCAGCUGAAUCUACAUGUCUCUUGUUUUAUUUCUCUCUAAACUUUGGAAUUCUCGGGUGCCAA: 0.423
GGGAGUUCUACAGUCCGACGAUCCGUGCUCUUCACACUCUCUGAGGCCUCAGUCCAUGUCCUAUAUCAGUUUCUCUUUUGUGUGCUUUACCAAGUGGCCGGUGACUACAGGCCACCCCGAUUCUCACCACAAAUGGAAUUCUCGGGUGCCAA: 0.291
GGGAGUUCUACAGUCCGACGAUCAACUAGCUCCCUAAUGGUCUAUAAUUUUAUUUCUUUUGGCUUAAAGUGAAAAAGAAGAAAUAGAGAAUUCCAGCAGAAUUCAGUGGUUGUCUACUAUCCAUACUUCUUAUUGGAAUUCUCGGGUGCCAA: 0.328
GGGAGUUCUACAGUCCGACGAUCAGCAUGGGCCCCAUUGCUUGGGCGGCUGCUGUAUUUUCAUUUACUCUGGCCCUUGGACUAUGGAAACGUGGGAGGGGCAGGGGAGAUGUGGGGAAGUCCAGGACUCCAGGUGGAAUUCUCGGGUGCCAA: 0.883

Set 3 — technique: aptamer microarray, sandwich; molecule type: DNA with 2'F-ANA; medium: in vitro; concentration: 200 nM; together with: Cy3 exosite-II aptamer, 400 nM; reading: higher = stronger binding; endpoint: mean fluorescence intensity; sequence: GGTTGGTGTGGTTGG
Target: Prothrombin, mature alpha-thrombin (F2, Homo sapiens, UniProt P00734)
Notes: whole 15-mer aptamer, many near background
2'F-ANA at 3 4 5 7 8 9 10 12: 62.9 a.u.
2'F-ANA at 2 4 5 7 8 9 11 12 13: 84.4 a.u.
2'F-ANA at 1 2 3 4 6 8 10 11 12 13 15: 71.9 a.u.
2'F-ANA at 2 6 9 13 14 15: 293 a.u.
2'F-ANA at 2 4 7 8 9 10 12 14 15: 89.1 a.u.
2'F-ANA at 2 3 4 7 9 10 13: 227 a.u.
2'F-ANA at 1 3 7 9 11 13 15: 218 a.u.
2'F-ANA at 1 3 4 5 9 11 14: 46.5 a.u.
2'F-ANA at 1 2 5 6 7 9 10 11 13 14: 52.5 a.u.
2'F-ANA at 1 3 7 8 13: 325 a.u.
2'F-ANA at 2 6 13: 308 a.u.
2'F-ANA at 3 9 10 13: 443 a.u.
2'F-ANA at 1 2 4 5 9: 63.1 a.u.
2'F-ANA at 1 3 4 8 9 10 12 14 15: 51.6 a.u.
2'F-ANA at 2 5 6 7 8 9 11 14 15: 58.3 a.u.
2'F-ANA at 1 2 10 12 13 15: 69.8 a.u.
2'F-ANA at 1 3 6 8 9 10 13 14: 59.4 a.u.

Set 4 — technique: RNA Bind-n-Seq; molecule type: RNA; medium: in vitro; concentration: 200 nM; notes: whole 134-nt RNA, ends assumed; together with: 150 mM KCl; reference: input library; reading: higher = stronger binding; endpoint: log2 enrichment
Target: Fragile X messenger ribonucleoprotein 1, C-terminal low-complexity region (Fmr1, Mus musculus, UniProt P35922)
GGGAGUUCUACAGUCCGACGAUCCAAGUCCUGUGCUACACAUCGUAUGUACCGAAUCGGCCCCGGGCCCCGGCCCCGGAAAGUAUUAUGUUACGCCGUUCGGAUCUGCACUUCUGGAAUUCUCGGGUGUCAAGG: -0.248
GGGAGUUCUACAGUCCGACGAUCUGGGAGGUGGAUUUUGUUUAUUUUUUUAGCUCAUUUCCAGGGGUGGGAAUUUUUAUUUAAUAUGUGUCAUGAAUAAAGUUGUUUUUGAAAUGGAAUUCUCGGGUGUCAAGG: 0.403
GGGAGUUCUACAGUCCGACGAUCGUCCUGUGCUACACAUCGUAUGUACCGAAUCGGGGAAAAAGGGGUUUGGGGAAAGGGGAAAGUAUUAUGUUACGCCGUUCGGAUCUGCACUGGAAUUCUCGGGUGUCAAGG: 0.448
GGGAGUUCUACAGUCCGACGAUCUGGCCCUGGUGGCAUGCGGGGAGGAAGAGGUGGCCUCAUGGAUCGUGGUGGUCCCGGUGGAAUGUUCAGAGGUGGCCGCGGUGGAGACAGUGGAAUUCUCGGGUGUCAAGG: -0.0463
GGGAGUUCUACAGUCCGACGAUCCAAGUCCUGUGCUACACAUCGUAUGUACCGAAUCGGGGUGGGGAGGGGAAAGGGGAAAGUAUUAUGUUACGCCGUUCGGAUCUGCACUUCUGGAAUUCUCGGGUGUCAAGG: 1.2
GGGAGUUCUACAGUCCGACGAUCCCUCAAGUCCUGUGCUACACAUCGUAUGUACCGAAUCGGGGCGGCGGGCGGGGAAAGUAUUAUGUUACGCCGUUCGGAUCUGCACUUCCAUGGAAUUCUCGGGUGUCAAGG: 0.891
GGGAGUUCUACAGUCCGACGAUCCUGUGCUACACAUCGUAUGUACCGAAUCGGGGUUUUUUUGGGGAAAAAAAGGGGUUUGGGGAAAGUAUUAUGUUACGCCGUUCGGAUCUGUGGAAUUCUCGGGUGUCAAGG: -0.528
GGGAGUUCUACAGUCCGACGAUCCACAGACAACACGCACCCACACAGACACAGAGGGAAGGGGUUGGGAUGGGGACCGGGUGCACAGCAGGGCGGGGUAGGACCCCAGCCCCUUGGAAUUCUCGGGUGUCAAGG: 1.37
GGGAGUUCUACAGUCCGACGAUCUGGGAGGUGGAUUUUGUUUAUUUUUUUAGCUCAUUUCCAGGGGUGGGAAUUUUUUUUUAAUAUGUGUCAUGAAUAAACUUGUUUUUGAAAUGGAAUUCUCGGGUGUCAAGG: 0.239
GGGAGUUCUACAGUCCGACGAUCGUCCUGUGCUACACAUCGUAUGUACCGAAUCGGUUUUUGGGUUUUUGGGGUUUUUGGGAAAGUAUUAUGUUACGCCGUUCGGAUCUGCACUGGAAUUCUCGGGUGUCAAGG: -0.216

Repeated from above (set 1):
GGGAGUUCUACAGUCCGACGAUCCCCACCCAGCUCACACCAGCAGCUUGCUCUCACACGUGCACAGCCUGCAAAGGAACAGUCUCGAGGGAUUUUUAUUUUAAUUUAAAACCUGCUUUUCCCAAAACUGAUCAAGAAGCUACGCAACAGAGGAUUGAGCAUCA: 0.496 ratio
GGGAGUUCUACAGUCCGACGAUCGCACAUGCCACUGUCACCAAAAAUGAACUACCACUUUCCAAAUUCCAUUCAGAGCCAUUUUAGUGUUUUCCUAUUCCCUACCCCUCCCACUACUUUCAAUGAUGAAAUACCCUAAGUUCUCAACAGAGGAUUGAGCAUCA: 2.69 ratio
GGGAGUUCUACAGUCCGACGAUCAAGGUGGGAGAGGUACCUUAAACUGGAAUAAUAAGAAAGGGAAACAGAAUGACGCUGGUACAGAAAAAUCAGAAGGAAAGCUUUGCAAAACCGUCCAACAGAACUGCAGUACAAGAUGCACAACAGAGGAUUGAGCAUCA: 0.415 ratio
